# Results collected from several papers.
# Every numbered part comes from another study and shows a few of its results, in no order.

# Block 1
# Target: PABPC1L2, full length, GST fusion (mouse, UniProt A0ABA7IW68)
# Method: RNAcompete
# Form: RNA
# Sample: in vitro
# Concentration: 20 nM
# Notes: 7-mer, probes averaged, single round
# Relative to: mean of 7-mers
# Reading: higher = stronger binding
Oligonucleotide,7-mer Z-score
GUGAUGC,-0.0718
UGGCGCA,-0.103
AUAUCAU,-0.142
GGCGCUC,-0.00833
UUCAGGG,-0.0319
UUAGACG,-0.119
AGCGCAC,-0.0355
GGGCUCU,0.0986
CCGUGGU,-0.224
UUAUUUA,-0.0736
GUGGAGG,0.363
CGCAUCG,-0.171
CUCACUA,-0.104
GUAUCGA,-0.126
AGUCUGG,-0.113
UGAGCUA,-0.113
UCCCGUA,-0.344
CUACCAG,-0.266
GGAACUG,0.0587
UGCUGUC,-0.269
UGGCUCG,-0.284
AGUUGGG,0.0497
AUUUGGG,-0.0772
AUCUGCA,-0.0264
AUGCGAU,-0.0609

# Block 2
# Target: RNA binding protein fox-1 homolog 2, RRM domain, GST-SBP tag (RBFOX2, Homo sapiens, UniProt O43251-10, residues 100-194)
# Method: RNA Bind-n-Seq
# Form: RNA
# Sample: in vitro
# Concentration: 365 nM
# Notes: natural RNA segment, single round, ends assumed
# Relative to: no-protein control
# Reading: higher = stronger binding
# Construct (chain): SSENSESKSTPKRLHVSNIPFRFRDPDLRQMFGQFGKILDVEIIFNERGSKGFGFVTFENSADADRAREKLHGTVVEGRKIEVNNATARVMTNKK
Oligonucleotide,RBNS enrichment (R)
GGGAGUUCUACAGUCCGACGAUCGAGCUUUCUGCAAAUAGCUUGAAGGAGGAAACAAUUUCUGAACACACAAGUAGCACCGUGUCGCCUCCCUUUAUCUUCAUAUUGAUAAAAGACUUUAUGUGGAUCUUGUAUGGAAUUCUCGGGUGCCAA,0.278
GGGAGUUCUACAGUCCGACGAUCAUUGCCUCCAUCUCAAUGUGAAUGCACCAGGCUGAGGGUUCCCUAGCGCCUUGAGUCAAGGCCACUUUUCAGCCCAUCGAGCCCUGAGUUCUACUUGGUGUUUGUUCUCUUGGAAUUCUCGGGUGCCAA,0.402
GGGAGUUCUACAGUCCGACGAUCAACCUGAACACUCAGCCCCAAGCUUCAGAAGAGUGAGAACCUCAUUUGAAAACUCAGCAGAACAUGAACAGAUGAAAUGCAAUCCUUCUGUCAUGGAAAUAUUCACAAGAUGGAAUUCUCGGGUGCCAA,0.44
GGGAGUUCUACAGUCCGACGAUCACCUCCUCGGCAAUUGCUCAUUCUAGGGUUGGGCAUCAUAGUUGGUCAGUCUUAAUUCCCAUGCCAAAGGACAAACAGGUGUGACAUUUGGAUAGAUGAAUACUGGGAUUUGGAAUUCUCGGGUGCCAA,0.684
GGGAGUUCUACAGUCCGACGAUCCCUGAGCUCUAGUUUUAAACUUUCUCCUGUUAAAAAAAUUGUACUUUUAUUUCAUGUAAACUGCCCCUCUGAGGAUUUGGGCAUAUUUUUUGGAAGGUGCCUAAUGCUUAUGGAAUUCUCGGGUGCCAA,1.18
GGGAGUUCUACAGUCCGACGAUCUUUGUGUGUUGUAUGGUCAAUAACAUUUUUCAUUACUGAUGGUGUCAUUCACCCAUUAGGUAAACAUUCCCUUUUAAAUGUUUGUUUGUUUUUUGAGACAGGAUCUCACUUGGAAUUCUCGGGUGCCAA,0.484
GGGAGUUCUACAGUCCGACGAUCGUUGUCUGACCAUAACAUGAUUUUUUUCUAAGAUGAAAUCCACAGAAGUUCUUAACUGUUAAAAAGUUACUUUUGACUUUGCUAGAUAAGGAGGCGAACCCAAGUGUGUGUGGAAUUCUCGGGUGCCAA,0.39
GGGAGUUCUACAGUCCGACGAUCUGUCCGCCCCUUGCCUGGAGACAGUUCUUCCCAUUUUAAACAAACAAACAAAAUUUAAGGCGUUUAUCCACAAGUUCUUGACUCGGGUACAGUGCGUUCCUGAGACACCCUGGAAUUCUCGGGUGCCAA,0.397
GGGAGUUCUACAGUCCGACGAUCCUCAGCCUUCAGUCACAUUUAGUCAUGGUCUGCCUGUGAGCGCAGUGAGUUCUCUCCUGACAGCUGUGAGCUCAGCUGGUGUGGGUGAGCCUUUCCUGCAGGAAGAGCCUUGGAAUUCUCGGGUGCCAA,0.431

# Block 3
# Target: Histone acetyltransferase KAT6A, winged helix 2, GST fusion (KAT6A, Homo sapiens, UniProt Q92794, residues 85-181)
# Method: protein binding microarray
# Form: double-stranded DNA, one strand shown
# Sample: in vitro
# Concentration: not given
# Notes: 8-mer, flanks averaged, mean of 2 arrays, mostly near background
# Relative to: not given
# Reading: higher = stronger binding
# Target sequence (chain): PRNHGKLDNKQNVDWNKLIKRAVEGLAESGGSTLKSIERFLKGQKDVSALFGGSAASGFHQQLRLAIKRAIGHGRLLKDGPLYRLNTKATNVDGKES
Oligonucleotide,E-score
GCCTAAGA,-0.0339
AATAACGT,-0.187
ACGTTTGA,-0.207
CGTCTTAC,-0.0651
CGATCACC,0.0549
CGAAACCA,0.12
ATACCCCA,-0.0859
AAAAAGTT,-0.0352
ACTCGCCC,0.0825
ACGTGGCC,-0.185
AAGTATGA,-0.118
GGTCTTTA,0.134
TGCGTTAA,-0.0258
CACAGGTG,-0.0183
AACATGGT,-0.0891
CAACCGTC,-0.0181
CTCTAGCC,0.0319
TCACCTGA,-0.0826
CGGAGGAC,0.13
TATTTCAA,0.0201
CCATGCAG,-0.0489
CAAGGCAC,0.064
GCAAGCCA,0.00949
AGTCATTC,-0.137
TACGCGAA,-0.0344

# Block 4
# Target: Fragile X messenger ribonucleoprotein 1, C-terminal low-complexity region (Fmr1, Mus musculus, UniProt P35922)
# Method: RNA Bind-n-Seq
# Form: RNA
# Sample: in vitro
# Concentration: 200 nM
# Notes: whole 134-nt RNA, ends assumed
# With: 150 mM LiCl
# Relative to: input library
# Reading: higher = stronger binding
# Library: 7-deaza-guanosine replaces G
Oligonucleotide,log2 enrichment
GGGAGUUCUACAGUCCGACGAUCUAACUUUAGAGGAGGAUCUGAUGGAUAGGGCAGUGGACGUGGAUUUGGGGAUGGCUAUAAUGGGUAUGGAGGAGGACCUGGAGGUGGCAAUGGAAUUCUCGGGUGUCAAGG,0.0452
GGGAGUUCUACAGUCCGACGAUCUGUGCUACACAUCGUAUGUACCGAAUCGGGGAAAAAAAGGGGUUUUUGGGGUUUUUUUGGGGAAAGUAUUAUGUUACGCCGUUCGGAUCUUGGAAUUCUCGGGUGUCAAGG,-1.16
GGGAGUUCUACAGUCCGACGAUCUUCUUACAUGUGUAAUCUUCUUCUCCUAGGGCGGCAGAACUCAUGACAAGAACAAGCUCUGUGGUGACACUGGAAGUAGCAAAGCAGGGUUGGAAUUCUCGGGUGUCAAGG,-0.0507
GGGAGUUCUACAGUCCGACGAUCCACAGACAACAAGCACCCACACAGACACAGAGGGAAGGGGUUGGGAUGGGGACAGGGUGCACAGCAGGGCGGGGUAGGACCCCAGCCCCUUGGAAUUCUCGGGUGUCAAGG,0.137
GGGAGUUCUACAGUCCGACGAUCGGGGACGGCAAAACAGAACAGAAAGGCGGAGAUAAAAAGAGGGGUGUUAAAAGACCACGAGAAGAUCAUGGCCGUGGAUAUUUUGAGUACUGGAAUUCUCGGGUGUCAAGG,1.25
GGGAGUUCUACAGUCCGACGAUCGCAGGAAGUAAAAACAAAUGGAAAUGCUUCGGAUAGUGGCAGGGGUGGGGGUUGCUAAGGAAAGGGUGGGAUGAGAGUGGGUAAAGAGUUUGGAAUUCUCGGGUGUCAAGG,1.41
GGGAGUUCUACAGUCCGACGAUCUAACUUUAGAGGAGGAUCUGAUGUAUAUGGCAGUGGACGUGGAUUUGGGGAUGGCUAUAAUGGGUAUGGAGGAGGACCUGGAGGUGGCAAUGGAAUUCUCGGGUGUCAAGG,0.432
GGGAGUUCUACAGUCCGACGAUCUGCAGCAGCGCCAGGAAUCGAGGAUGGUAAAAUGACCCAGGGGAAGAAGAAGAAACGGGCCGCGAACCGCAGUAUCAUGCUGGCCAAGAAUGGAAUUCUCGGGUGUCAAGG,0.516
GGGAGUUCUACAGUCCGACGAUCUGGCCCUGGUGGCAUGCGGGGAGGAAGAGGUGGCCUCAUGGAUCGUGGUGGUCCCGGUGGAAUGUUCAGAGGUCGCCGUGGUGGAGACAGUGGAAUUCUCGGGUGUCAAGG,-0.712
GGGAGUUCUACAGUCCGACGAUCGUCCUGUGCUACACAUCGUAUGUACCGAAUCGGGGAAAAAGGAAAAAGGGGAAAAAGGAAAGUAUUAUGUUACGCCGUUCGGAUCUGCACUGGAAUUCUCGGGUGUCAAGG,0.117
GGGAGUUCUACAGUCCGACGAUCCACAGACAACACGCACCCACACAGACACAGAGGGAAGGGGUUGGGAUGGGGACAGGGUGCACAGCAGGGCGGGGAAGGACCCCAGCCCCUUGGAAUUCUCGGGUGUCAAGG,1.97

# Repeated from above (block 1):
Oligonucleotide,7-mer Z-score
UUCAGGG,-0.0319
UGAGCUA,-0.113
AGUUGGG,0.0497
CUCACUA,-0.104
AUGCGAU,-0.0609
AGCGCAC,-0.0355
GGAACUG,0.0587
CUACCAG,-0.266
UUAGACG,-0.119
GUAUCGA,-0.126
